{"data": "Measured values from different studies", "note": "Each numbered part is a random draw from the data of one study; scales do not carry over between parts."}
{"data": "Set 1", "target": "Interferon regulatory factor 7, full length, phosphomimetic (IRF7, Homo sapiens, UniProt Q92985, residues 1-503, S471D/S472D/S475D/S476D/S477D/S483D/S484D/S487D)", "method": "protein-binding microarray", "molecule type": "double-stranded DNA, one strand shown", "medium": "in vitro", "concentration": "2200 nM top", "notes": "60-bp whole probe", "together with": "salmon DNA 0.4 mg/ml", "reference": "random background probes", "reading": "higher = stronger binding", "all sequences stand within": "GCCTAGCAC … GTCTTGATTCGCTTGACGCTGCTG", "sequence of UniProt Q92985 (whole entry, unmodified, looked up)": "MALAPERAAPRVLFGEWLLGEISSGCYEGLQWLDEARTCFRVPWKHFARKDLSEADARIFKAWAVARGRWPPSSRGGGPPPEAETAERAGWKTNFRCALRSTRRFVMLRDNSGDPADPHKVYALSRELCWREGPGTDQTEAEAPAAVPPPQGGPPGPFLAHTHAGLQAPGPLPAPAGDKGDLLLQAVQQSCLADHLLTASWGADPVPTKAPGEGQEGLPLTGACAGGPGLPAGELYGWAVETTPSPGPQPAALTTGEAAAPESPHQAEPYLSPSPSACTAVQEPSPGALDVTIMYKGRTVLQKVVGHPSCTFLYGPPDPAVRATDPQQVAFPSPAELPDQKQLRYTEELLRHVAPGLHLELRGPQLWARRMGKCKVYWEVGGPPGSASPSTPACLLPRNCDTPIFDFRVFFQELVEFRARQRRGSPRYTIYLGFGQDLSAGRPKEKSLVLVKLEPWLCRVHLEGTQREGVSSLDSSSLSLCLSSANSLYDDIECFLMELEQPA"}
{"Strand": "TCATGGATGTGTTTTAAACTGTGCTAG", "fitted relative affinity [z-score]": 0.395}
{"Strand": "TCTGGTTCCCATTCCAGGGTGTGCTAG", "fitted relative affinity [z-score]": 2.14}
{"Strand": "TAAGGTCTCCTTCTCCTTTAGTGCTAG", "fitted relative affinity [z-score]": 1.26}
{"Strand": "GACGGTTTCGACTAACGGGACGTGCTA", "fitted relative affinity [z-score]": 3.31}
{"Strand": "TACGGTTTCGGTATCGGGACGTGCTAG", "fitted relative affinity [z-score]": 8.21}
{"Strand": "GACGGACTGGGGAATCGGGACGTGCTA", "fitted relative affinity [z-score]": -0.781}
{"Strand": "TCATGATTGGTTGAACAACTGTGCTAG", "fitted relative affinity [z-score]": 0.307}
{"Strand": "TCAGATTTCAGTCTCGATTAGTGCTAG", "fitted relative affinity [z-score]": 1.18}
{"Strand": "GACGGTATCCGTCTCGGGACGTGCTAG", "fitted relative affinity [z-score]": -0.136}
{"Strand": "GACGATATCGGGTATTGAGACGTGCTA", "fitted relative affinity [z-score]": 0.265}
{"data": "Set 2", "target": "RNA binding protein fox-1 homolog 2, RRM domain, GST-SBP tag (RBFOX2, Homo sapiens, UniProt O43251-10, residues 100-194)", "method": "RNA Bind-n-Seq", "molecule type": "RNA", "medium": "in vitro", "concentration": "365 nM", "notes": "natural RNA segment, single round, ends assumed", "reference": "no-protein control", "reading": "higher = stronger binding", "all sequences stand within": "GGGAGUUCUACAGUCCGACGAUC … UGGAAUUCUCGGGUGCCAA", "Residues (chain)": "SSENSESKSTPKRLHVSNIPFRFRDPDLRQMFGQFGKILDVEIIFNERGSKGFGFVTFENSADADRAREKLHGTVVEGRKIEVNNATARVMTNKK"}
{"Strand": "GAUUGUUAGAAAGUGAACUUUGCUCAACCCAGACCCCGGCAGCCCAGGCUGGACCAAGGGUGGGCCUGGCCACCUUCUCUCACUUUGCUGGGGUCUCCUGCUUCAAGCAG", "RBNS enrichment (R)": 0.396}
{"Strand": "UUCUGCCACAGAACAGCAGCAGACGUGUCGGGAGGUUAGCUGCGGAAAGAAAUCGGGAUGCCGCGGAGCACAGAGUGAUUUGGAACUCCAUUCCACCUGACCCUGUGUGU", "RBNS enrichment (R)": 0.377}
{"Strand": "GUAUGAUGCUUGCUUUAUGCCAUAGCCAUCUAUAUUGUAAUUUAUCUAUACAAUUAAACAAAUUUAAUGAACCCUAUGAAUUAUUCUUUGAUGUGUUUGUUUUUGUAAGA", "RBNS enrichment (R)": 2.65}
{"Strand": "UUUCCUCUGAUCCACUGUCCAAGUUGGGUCACAAACAUGUCACUCAUGCAUGCCUGCACUCCAGAGUCAGGUGCCAAGCUUGCUUGUCCUUCCCUGCCUCCAGGUCAGGG", "RBNS enrichment (R)": 0.922}
{"Strand": "ACCACUUAGGUUAGAAAGAAACAGGAAUCAUCCUAGGCAGGAAAAUUACUCCACUUUUUUUUAAGUGUCCUUCCAAUAACUAAUGCCACUCAUCAGCAUUGUCCUCUUUG", "RBNS enrichment (R)": 0.381}
{"Strand": "CACAGGAACAGCCCUCUUAAUCUGAGCCUGCCUAUGCUGGCAUUCUUUGCCAGUAAUGGGACACUUCUUUUGGCAUUUCUUGCAGAGUGCUUUUGAGGGACUUGGCUGUA", "RBNS enrichment (R)": 0.269}
{"Strand": "GGCAAAUCCUUCUGCCAUCAGCUGUGUGGGCUUGCCUCUUUGAGCUCAUCUCCCCUCACAGGCUGUCUUCAUGAUGCAGGACCUGGGCACAUGGUCACAUUAUUCCGUUC", "RBNS enrichment (R)": 0.194}
{"Strand": "GUGAAAAGUCAUCACAAGACUCCUAGGUCAUUAUAAGAAUUAAAGAUUUGAAAGAGUAAUAUAAUAUAAGCUUGGUGAGGCUUUGUGGCUUUUUGUUCUACUCUUCCCAU", "RBNS enrichment (R)": 1.09}
{"Strand": "UAAUAUAUUAUCCUUCCUUGGUUCUAGAAGAAUAGAUAAAUAUAUUUUUUUAGGCUAUAGAAUGAUAUUACAGGUCCCAUGUUGGCUGGAUGGUUGCGUGAGUUUUCGUG", "RBNS enrichment (R)": 0.784}
{"Strand": "AGGCAAAGCACGGGUGAAGGUAGGCGCUAAAGGCUUUGGGCUAAAGCCAGCACGCGGUUCUGUGCUAUAGGAGUCUCCCGUUUCCCGUGGACAGGUUCAGCGUUCCUUCU", "RBNS enrichment (R)": 0.511}
{"Strand": "GUUUAUUUUAGACUUUCAAGGAAACAAAAGACUUUAGAGUCCUCUCUCUGUAAUUCUGCCCCACUCAUUUGUUUACCCUGGGUUUUAUACAGUUCUCUUCCUUCUCCCCU", "RBNS enrichment (R)": 0.705}
{"data": "Set 3", "target": "Histone acetyltransferase KAT6A, both winged helices, GST fusion (KAT6A, Homo sapiens, UniProt Q92794, residues 1-181)", "method": "protein binding microarray", "molecule type": "double-stranded DNA, one strand shown", "medium": "in vitro", "concentration": "not given", "notes": "8-mer, flanks averaged, mean of 2 arrays, mostly near background", "reference": "not given", "reading": "higher = stronger binding", "Target sequence (chain)": "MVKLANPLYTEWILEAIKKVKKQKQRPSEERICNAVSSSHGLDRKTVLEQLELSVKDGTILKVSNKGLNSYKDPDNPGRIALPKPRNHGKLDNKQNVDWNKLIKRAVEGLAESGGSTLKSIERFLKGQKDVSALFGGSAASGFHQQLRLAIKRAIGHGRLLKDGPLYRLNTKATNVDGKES"}
{"Strand": "TACGATAA", "E-score": 0.00901}
{"Strand": "ACCACGCA", "E-score": -0.0464}
{"Strand": "ACTCTCAT", "E-score": -0.117}
{"Strand": "ATACAGCG", "E-score": 0.122}
{"Strand": "CTAGGGAC", "E-score": 0.0127}
{"Strand": "AGCTTCCA", "E-score": -0.0919}
{"Strand": "ACCAAGTC", "E-score": -0.0932}
{"Strand": "GCACAGGC", "E-score": -0.033}
{"Strand": "ATGCGAGA", "E-score": -0.0401}
{"Strand": "ACCCCACG", "E-score": -0.0986}
{"data": "Further values, each from its own experiment"}
{"Substance": "PhoQ, residues 284 288 289 292 302 303 SLSVQF", "target": "PhoP, residues 12 14 15 18 19 HHYTI (Escherichia coli, UniProt P23836)", "assay": "Sort-seq, measured: YFP reporter", "system": "E. coli", "conditions": "PhoQ-PhoP variant library, together with: 10 µM Mg2+", "scale": "reference: high Mg2+ state, higher = stronger signaling", "endpoint": "fold induction", "result": 7.67}
{"note": "Repeated from above (set 3):"}
{"Strand": "CTAGGGAC", "E-score": 0.0127}
{"Strand": "AGCTTCCA", "E-score": -0.0919}
{"Strand": "ACCAAGTC", "E-score": -0.0932}
